Measurements pooled from the literature.
Numbered parts are unrelated; each lists some results of a single study.

Series 1 — method: protein binding microarray; molecule type: double-stranded DNA, one strand shown; medium: in vitro; tested at: not given; relative to: not given; reading: higher = stronger binding
Target: Histone acetyltransferase KAT6A, winged helix 1, GST fusion (KAT6A, Homo sapiens, UniProt Q92794, residues 1-85)
Setting: 8-mer, flanks averaged, mean of 2 arrays, mostly near background
Residues (chain): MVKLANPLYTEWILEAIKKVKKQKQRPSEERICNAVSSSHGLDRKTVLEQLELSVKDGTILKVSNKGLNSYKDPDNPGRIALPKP
`TCTGAAGA` has an E-score of -0.0466.
With `ATTTGCCA` the E-score was -0.338.
`ACCGCGTA` gave an E-score of 0.35.

Series 2 — method: aptamer microarray, sandwich; molecule type: DNA with 2'F-ANA; medium: in vitro; tested at: 200 nM; with: Cy3 exosite-II aptamer, 400 nM; reading: higher = stronger binding; oligonucleotide: GGTTGGTGTGGTTGG
Target: Prothrombin, mature alpha-thrombin (F2, Homo sapiens, UniProt P00734)
Setting: whole 15-mer aptamer, many near background
`2'F-ANA at 1 2 3 4 6 7 8 10 11 13 14 15`: “mean fluorescence intensity” 48.3 a.u.
`2'F-ANA at 2 5 6 10 12 13`: “mean fluorescence intensity” 49 a.u.
For `2'F-ANA at 2 3 4 7 8 9 12 13 14`, “mean fluorescence intensity” read 298 a.u.
`2'F-ANA at 1 4 6 12 14 15`: “mean fluorescence intensity” 58.2 a.u.
`2'F-ANA at 1 3 5 7 8 9 13` — result for “mean fluorescence intensity”: 56.4 a.u.

Series 3 — method: universal PBM; molecule type: double-stranded DNA, one strand shown; medium: in vitro; tested at: not given; reading: higher = stronger binding
Target: Sal-like protein 4, full length isoform B (SALL4, Homo sapiens, UniProt Q9UJQ4-2, residues 1-616)
Setting: 8-mer, flanks averaged, mean of replicates
For `AATCCGAA`, the E-score was 0.057.
With `TCACGGGA` the E-score was 0.019.
`ATTACAAT` gave an E-score of 0.337.
With `GTGGCGGA` the E-score was -0.258.

Mixed results
The fold induction of `PhoQ, residues 284 288 289 292 302 303 AQGLTV` is reported as 1.48 (PhoP, residues 12 14 15 18 19 VQGLL (Escherichia coli, UniProt P23836); Sort-seq, refers to: YFP reporter; E. coli; PhoQ-PhoP variant library, with: 10 µM Mg2+; relative to: high Mg2+ state, higher = stronger signaling).

Excerpt of the above (series 3):
With `TCACGGGA` the E-score was 0.019.
